Assay results gathered from unrelated publications.
Every numbered part comes from another study and shows a few of its results, in no order.

Study 1
Target: Histone acetyltransferase KAT6A, both winged helices, GST fusion (KAT6A, Homo sapiens, UniProt Q92794, residues 1-181)
Method: protein binding microarray
Form: double-stranded DNA, one strand shown
Sample: in vitro
Tested at: not given
Notes: 8-mer, flanks averaged, mean of 2 arrays, mostly near background
Reference: not given
Reading: higher = stronger binding
Quantity: E-score
Target sequence (chain): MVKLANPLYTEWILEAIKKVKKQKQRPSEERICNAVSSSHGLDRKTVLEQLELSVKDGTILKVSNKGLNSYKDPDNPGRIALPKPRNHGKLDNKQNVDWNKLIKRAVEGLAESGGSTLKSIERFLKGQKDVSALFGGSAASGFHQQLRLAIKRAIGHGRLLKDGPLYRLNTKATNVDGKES
CGATATCC: -0.0741
AAACAAAT: -0.142
ACAGGTAT: -0.112
ACCCAACG: -0.116
AGCCCTAG: -0.221
ACGGTGGC: 4e-05
CGAATATC: -0.0406

Study 2
Target: Sal-like protein 4, full length isoform A (SALL4, Homo sapiens, UniProt Q9UJQ4, residues 1-1053)
Chain of UniProt Q9UJQ4 (whole entry, looked up): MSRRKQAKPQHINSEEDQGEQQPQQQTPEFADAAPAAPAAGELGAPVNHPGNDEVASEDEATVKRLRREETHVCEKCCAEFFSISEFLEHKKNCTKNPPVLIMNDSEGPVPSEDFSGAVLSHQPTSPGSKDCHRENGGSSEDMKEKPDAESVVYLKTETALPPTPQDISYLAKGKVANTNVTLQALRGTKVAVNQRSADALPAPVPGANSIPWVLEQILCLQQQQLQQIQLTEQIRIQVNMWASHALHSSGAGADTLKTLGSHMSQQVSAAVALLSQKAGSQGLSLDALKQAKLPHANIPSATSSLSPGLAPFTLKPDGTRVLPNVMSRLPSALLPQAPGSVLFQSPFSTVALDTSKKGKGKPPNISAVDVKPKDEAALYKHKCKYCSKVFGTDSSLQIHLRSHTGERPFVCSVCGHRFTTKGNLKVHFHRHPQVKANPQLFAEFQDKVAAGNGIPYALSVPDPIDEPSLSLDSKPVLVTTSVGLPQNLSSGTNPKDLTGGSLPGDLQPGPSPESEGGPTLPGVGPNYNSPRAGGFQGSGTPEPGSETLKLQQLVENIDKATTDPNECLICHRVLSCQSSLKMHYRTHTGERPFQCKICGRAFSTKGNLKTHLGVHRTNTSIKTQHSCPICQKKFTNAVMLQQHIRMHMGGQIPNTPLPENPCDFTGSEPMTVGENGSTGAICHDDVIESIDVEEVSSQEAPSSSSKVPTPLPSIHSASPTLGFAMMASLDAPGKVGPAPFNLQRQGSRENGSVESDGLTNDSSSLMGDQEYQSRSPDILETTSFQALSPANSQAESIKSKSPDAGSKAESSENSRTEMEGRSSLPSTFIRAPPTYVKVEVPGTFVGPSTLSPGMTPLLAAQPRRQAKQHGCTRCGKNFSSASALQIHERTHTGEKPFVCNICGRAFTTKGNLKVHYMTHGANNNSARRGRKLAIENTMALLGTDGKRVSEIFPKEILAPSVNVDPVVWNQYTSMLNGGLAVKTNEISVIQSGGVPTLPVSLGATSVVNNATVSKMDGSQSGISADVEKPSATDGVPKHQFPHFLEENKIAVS
Method: universal PBM
Form: double-stranded DNA, one strand shown
Sample: in vitro
Tested at: 600 nM
Notes: 8-mer, flanks averaged, mean of replicates
Reading: higher = stronger binding
Quantity: E-score
AAATAGTC: 0.0991
CGCTGAAG: -0.291
AGGTTACA: 0.109
ATAAATTC: 0.315
GGAATACC: -0.0185
ATGCGCAG: -0.122

Study 3
Target: RNA binding protein fox-1 homolog 2, RRM domain, GST-SBP tag (RBFOX2, Homo sapiens, UniProt O43251-10, residues 100-194)
Method: RNA Bind-n-Seq
Form: RNA
Sample: in vitro
Tested at: 365 nM
Notes: natural RNA segment, single round, ends assumed
Reference: no-protein control
Reading: higher = stronger binding
Quantity: RBNS enrichment (R)
Shared flanks, not repeated: GGGAGUUCUACAGUCCGACGAUC … UGGAAUUCUCGGGUGCCAA
GGCAGUGCACCUAUUCUGUAGUUGCAGCUAUUGCCUGAAUGUACCUUAGCUGACAAAUUAUUGAUAAUUAAGAACUUGAAUUUGUGAUUCUUACUGCUAAUUAAAACCUA: 0.911
GUUUACUCUAUCGCAUUUCUGUAACAUGAAAUGCAUGCCCUUCUUCAGGGGAAGACUGUGGUCAAGUUAAAAAAAAAAAACAAUAUUAAACAACAUGAAACUGCAGUCUG: 0.386
UUGUAAUGCCAGCAUUCCUCUUCCCCAUUUCCAGCUGUCACUCCUUCAUUAAACUGCUGAGUCAUUCCUUCCUUUGUCCCUUGGUUGUUUUUCUGUCUGUGGGAAAGUGU: 0.569
GCAAAGGAACAAGGUUUUAUGUAGGUGAGAGAAAGCAUUUGUACGAAGUUAGAUUUGAACAUAGAUAAGAUAGGUUAUUCCAGUUGAGAAUAUUGUUCGAAGAAUGUCUG: 1.4
AACAGCUUUCUGGGUAAUUCACCAAUUUCCUUUAAAACAUAAGCUACCUGAAUGGAGAAUACAUCUUGUUUCUGAGUUUCAACACUAGCAUUUUUGGCUUACUCAUGGAC: 0.421
UCUUGACAGUAUAUUUGAAACUGUAAAUAUGUUUGUGCCUUAAAAGGAGAGAAGAAAGUGUAGAUAGUUAAAAGACUGCAGCUGCUGAAGUUCUGAGCCGGGCAAGUCGA: 1.1

Other studies, line by line
PhoQ, residues 284 288 289 292 302 303 SSTLLI — fold induction (PhoP, residues 12 14 15 18 19 SPWRL (Escherichia coli, UniProt P23836); Sort-seq, item: YFP reporter; E. coli; PhoQ-PhoP variant library, added: 10 µM Mg2+; reference: high Mg2+ state, higher = stronger signaling): 3.29

A few entries again (study 3):
UUGUAAUGCCAGCAUUCCUCUUCCCCAUUUCCAGCUGUCACUCCUUCAUUAAACUGCUGAGUCAUUCCUUCCUUUGUCCCUUGGUUGUUUUUCUGUCUGUGGGAAAGUGU: 0.569
GCAAAGGAACAAGGUUUUAUGUAGGUGAGAGAAAGCAUUUGUACGAAGUUAGAUUUGAACAUAGAUAAGAUAGGUUAUUCCAGUUGAGAAUAUUGUUCGAAGAAUGUCUG: 1.4
AACAGCUUUCUGGGUAAUUCACCAAUUUCCUUUAAAACAUAAGCUACCUGAAUGGAGAAUACAUCUUGUUUCUGAGUUUCAACACUAGCAUUUUUGGCUUACUCAUGGAC: 0.421
